{"data": "Measurements pooled from the literature", "note": "Lines come from different studies, so protocols differ. Several values in a cell are separate wells, animals, samples, runs or records. ± marks the error that the study gave."}
{"SMILES": "Cc1ccc(S(=O)(=O)NC23CCCC(C)(CCC4C2CC4(C)C)C3)cc1 (stereo not drawn)", "cell line": "HT-29", "assay": "cell growth or viability, CCK-8", "conditions": "50 µM", "quantity": "inhibition", "result": "94.6%"}
{"SMILES": "CN1CCCNC(=O)c2cccc(c2)C(=O)NCCCN(C)CCCNc2cccc3c2C(=O)c2cccc(c2C3=O)NCCC1", "cell line": "SAS", "assay": "RNA-Seq, item: ITSN2 mRNA", "conditions": "1 µM, 6 h", "how to read": "reference: untreated cells", "quantity": "log2 fold change", "result": -0.841}
{"SMILES": "COc1cccc(CNC[C@](O)(COCc2ccccc2)[C@@H]2CC[C@@H](C)C[C@H]2OCc2ccccc2)c1", "cell line": "A2780", "assay": "cell growth or viability, MTT", "conditions": "30 µM, 72 h", "quantity": "inhibition", "result": "99.1%"}
{"SMILES": "CCC(=CCc1c(O)cc2c(c1O)C(=O)CC(c1ccc(OC)cc1O)O2)CC (stereo not drawn)", "cell line": "HeLa", "assay": "cell growth or viability, MTT", "conditions": "50 µM, 48 h", "quantity": "inhibition", "result": "96.1%"}
{"SMILES": "CC(=O)N[C@@H](Cc1ccc(O)cc1)C(=O)N1CSC[C@H]1C(=O)N[C@@H](C)C(=O)N[C@@H](CC(=O)O)C(=O)COC(=O)c1c(C)cccc1C", "cell line": "THP-1 cells, LPS-primed", "assay": "pyroptosis, LDH release", "conditions": "25 µM, LPS 1 µg/mL, 4 h, together with: nigericin 5 µM, 2 h", "quantity": "cell lysis", "result": "34.2%"}
{"SMILES": "COC(=O)C1=C(C)Oc2ccc(Br)cc2C1C(C(C)=O)C(=O)OC (stereo not drawn)", "cell line": "3T3-L1 mature adipocytes", "assay": "lipolysis, Oil Red O staining", "conditions": "IC20", "quantity": "mean lipid content", "result": "0.716 OD492"}
{"SMILES": "CC1CN(C(=O)c2cn(C34CCCC(C)(CCC5C3CC5(C)C)C4)nn2)CCN1 (stereo not drawn)", "cell line": "HT-29", "assay": "cell growth or viability, CCK-8", "conditions": "10 µM", "quantity": "inhibition", "result": "66.3%"}
{"SMILES": "O=c1cc(Nc2ccccc2)c2ccccc2o1", "cell line": "COS-7 (untransfected)", "conditions": "500 µM, unit not given", "how to read": "reference: 3 µM ionomycin", "quantity": "calcium mobilisation signal", "result": "2.46 ± 0.63"}
{"SMILES": "Cn1ncc2cc(-c3cncc(Cl)c3N3CCC4(CCNC4=O)CC3)ccc21", "cell line": "LS174T", "assay": "microarray, item: NFE2L2", "conditions": "concentration not given, 4 h, gene set NRF2", "how to read": "reference: untreated cells", "quantity": "fold change in expression", "result": -1.24}
{"SMILES": "COc1ccc(CNC[C@](O)(COCc2ccccc2)[C@@H]2CC[C@@H](C)C[C@H]2OCc2ccccc2)cc1", "cell line": "HeLa", "assay": "cell growth or viability, MTT", "conditions": "10 µM, 72 h", "quantity": "inhibition", "result": "97.7%"}
{"SMILES": "CCc1c(-c2ccc3[nH]ncc3c2)cnc(N)c1-c1ccc(O)cc1", "cell line": "CHP-212 resistant sublines, USP7 V517F heterozygous", "conditions": "0.3906 µM", "quantity": "viability", "result": "110%"}
{"SMILES": "COc1cccc(C2CC(c3ccccc3Cl)Nc3nc(N)nn32)c1 (stereo not drawn)", "cell line": "MEF TRE-FLAG-LMNB1", "assay": "item: LMNB1", "conditions": "100 µM", "quantity": "maximum inhibition", "result": "71%"}
{"SMILES": "N#C[C@@H]1CCCN1C(=O)CNC(=O)c1ccnc2ccc(OCCCN3CCN(C(=O)CCc4ccc5c(c4)CN4CCN(Cc6cc(CCC(=O)O)ccc6O)CC(=O)[O][Al-]([18F])([O]C(=O)C4)[O]5)CC3)cc12 (stereo partly drawn)", "cell line": "HT1080 cells expressing human FAP", "conditions": "15 min, 37 °C", "quantity": "internalized fraction", "result": "66.9 ± 0.7%"}
{"SMILES": "O=S(=O)(Nc1ccc(OC(F)(F)F)cc1)N1CCCC(C2c3ccc(F)cc3CCc3cc(F)ccc32)C1 (stereo not drawn)", "cell line": "D425", "assay": "Transwell", "conditions": "1.5 µM, 24 h", "quantity": "cell migration", "result": "decreased"}
{"SMILES": "O=C(CC(=O)Nc1ccc2[nH]nc(/C=C/c3ccccn3)c2c1)Nc1cccc(F)c1", "cell line": "BaF3", "assay": "cell growth or viability, CCK-8", "quantity": "GI50", "result": "> 10 µM"}
{"SMILES": "CC(=O)N[C@@H](Cc1c[nH]c2ccccc12)C(=O)N[C@@H](CCC(=O)O)C(=O)N[C@@H](C)C(=O)N[C@@H](CC(=O)O)C(=O)COC(=O)c1c(C)cccc1C", "cell line": "THP-1 cells expressing FKBP-caspase-4", "assay": "pyroptosis, inhibitor", "conditions": "concentration not given, together with: B/B dimerizer", "quantity": "LDH release", "result": "24.1% and 23.8% and 28.3%"}
{"SMILES": "O=S(=O)(N[C@H]1CCO[C@@H](C2c3ccccc3CCc3ccccc32)C1)c1ccc(OC(F)(F)F)cc1", "cell line": "D425", "assay": "immunoblot", "conditions": "concentration not given", "quantity": "I2PP2A protein level", "result": "increased"}
{"SMILES": "CCN(C(=O)c1cc(F)ccc1Oc1nncnc1N1CCC2(C1)CN([C@H](CCCN(C)CCOC)C(C)C)C2)C(C)C", "cell line": "MINO", "assay": "cell growth or viability", "conditions": "72 h", "quantity": "GI50", "result": "> 10 µM"}
{"SMILES": "C=CCc1c(O)cc2c(c1O)C(=O)CC(c1ccc(O)cc1)O2 (stereo not drawn)", "cell line": "HeLa", "assay": "cell growth or viability, MTT", "conditions": "25 µM, 48 h", "quantity": "inhibition", "result": "4.73%"}
{"SMILES": "CCN(CC)CC(=O)Nc1cccc(-n2cc(-c3ccc4ccc(-c5cn(-c6cccc(NC(=O)CN(CC)CC)c6)nn5)cc4c3)nn2)c1", "cell line": "RCC4", "assay": "PCR angiogenesis array, item: TGFB1", "conditions": "5 x IC50, 4 h, normoxia", "how to read": "reference: untreated", "quantity": "fold regulation", "result": "-1.1 fold"}
{"SMILES": "C=CC(=O)N1[C@H](c2ccc3c(c2)OCO3)c2[nH]c3ccccc3c2C[C@@H]1C(=O)NC", "cell line": "rat DRG neurons", "conditions": "1.111 µM, 48 h, together with: vincristine 40 nM", "quantity": "mean neuron degeneration", "result": "25.5%"}
{"SMILES": "Cc1ncsc1-c1ccc(C(C)NC(=O)C2CC(O)CN2C(=O)C(NC(=O)CCCCCCCCCCN2CCCC(Nc3ncc(Cl)c(Nc4ccccc4S(=O)(=O)C(C)C)n3)C2)C(C)(C)C)cc1 (stereo not drawn)", "cell line": "22Rv1", "assay": "RNA-seq, item: PUDP mRNA", "conditions": "concentration not given", "how to read": "reference: DMSO", "quantity": "log2 fold change", "result": -1.02}
{"SMILES": "CCOc1cncc(-c2ccc(NC(=O)C3(c4ccnc(NS(=O)(=O)C5CC5)n4)CCOCC3)nc2)n1", "cell line": "NCI-H1299", "assay": "cell growth or viability, ATP luminescence", "conditions": "72 h", "quantity": "IC50", "result": "0.131 µM"}
{"SMILES": "C=CC(=O)N1CCCC(n2c(=O)c3ncccc3n(Cc3ccc(Oc4ccccc4)cc3)c2=O)C1 (stereo not drawn)", "cell line": "OCI-LY19", "assay": "annexin V/PI flow cytometry", "conditions": "100 nM, 72 h", "quantity": "late apoptotic cells", "result": "13.2%"}
{"SMILES": "COc1cc(N2CCN(C(=O)C3CCCN3)CC2)ccc1Nc1ncc(Cl)c(Nc2ccccc2P(C)(C)=O)n1 (stereo not drawn)", "cell line": "NCI-H3122", "assay": "CCK-8", "conditions": "25 nM, 48 h", "quantity": "viability", "result": "60%"}
{"SMILES": "CC(C)S(=O)(=O)NC12CCCC(C)(CCC3C1CC3(C)C)C2 (stereo not drawn)", "cell line": "HT-29", "assay": "cell growth or viability, CCK-8", "conditions": "50 µM", "quantity": "inhibition", "result": "98.6%"}
{"SMILES": "O=S(=O)(N[C@H]1CCO[C@@H](C2c3ccc(F)cc3CCc3cc(F)ccc32)C1)c1ccc(OC(F)(F)F)cc1", "cell line": "D425", "assay": "immunoblot", "conditions": "concentration not given, 24 h", "quantity": "cleaved caspase 9 level", "result": "increased"}
{"SMILES": "COC1CCN(C(=O)/C=C/c2nn(Cc3cccc(C(F)(F)F)c3)c3nc(NC(C)C)ncc23)CC1", "cell line": "FLO-1", "assay": "cell growth or viability, resazurin", "conditions": "5 days", "quantity": "EC50", "result": "3.9 µM"}
{"SMILES": "O=C(C[Se]C(=O)c1ccc2ccccc2n1)Nc1cccc(C(F)(F)F)c1", "cell line": "NCI60 leukemia subpanel", "assay": "cell growth", "conditions": "10 µM, 48 h, one-dose", "quantity": "mean growth percent", "result": "-80.8%"}
{"SMILES": "C[C@@H]1CC[C@@H]([C@@](O)(COCc2ccccc2)Cn2cnc3ccccc32)[C@H](OCc2ccccc2)C1", "cell line": "A2780", "assay": "cell growth or viability, MTT", "conditions": "10 µM, 72 h", "quantity": "inhibition", "result": "83%"}
{"SMILES": "CC12CCCC(n3cc(C(=O)N4CCOCC4)nn3)(C1)C1CC(C)(C)C1CC2 (stereo not drawn)", "cell line": "HT-29", "assay": "cell growth or viability, CCK-8", "conditions": "10 µM", "quantity": "inhibition", "result": "< 50%"}
{"SMILES": "CCC(=CCc1c(O)cc2c(c1O)C(=O)CC(c1ccc(O)c(OC)c1)O2)CC (stereo not drawn)", "cell line": "HeLa", "assay": "cell growth or viability, MTT", "conditions": "1.563 µM, 48 h", "quantity": "inhibition", "result": "5.28%"}
{"SMILES": "O=C(C[Se]C(=O)c1cccnc1Nc1cccc(C(F)(F)F)c1)Nc1cccc(C(F)(F)F)c1", "cell line": "NCI60 NSCLC subpanel mean", "assay": "cell growth", "quantity": "TGI", "result": "3.32 µM"}
{"SMILES": "COc1ccc(S(=O)(=O)NC23CCCC(C)(CCC4C2CC4(C)C)C3)cc1 (stereo not drawn)", "cell line": "HT-29", "assay": "cell growth or viability, CCK-8", "conditions": "50 µM", "quantity": "inhibition", "result": "98.9%"}
{"SMILES": "CCC(=CCc1c(O)cc2c(c1O)C(=O)CC(c1ccc(O)cc1OC)O2)CC (stereo not drawn)", "cell line": "HeLa", "assay": "cell growth or viability, MTT", "conditions": "3.125 µM, 48 h", "quantity": "inhibition", "result": "14.9%"}
{"SMILES": "CCCCCCc1cccc([C@H](O)C[C@H](CO)NC(=O)CCCCCOc2ccc3ccccc3c2)c1", "cell line": "HeLa", "assay": "CERT activity, HPLC-MS/MS lipidomics, item: ceramide 24:1", "conditions": "1 µM, 24 h, not cell-number normalised", "quantity": "ceramide level", "result": "10700 pmol/sample and 18700 pmol/sample and 18500 pmol/sample"}
{"SMILES": "CC[C@H](C)[C@H](NC(=O)[C@H](CCCC(=O)O)NC(=O)[C@H](CC(=O)O)NC(C)=O)C(=O)N[C@@H](CC(=O)O)C(=O)COC(=O)c1c(C)cccc1C", "cell line": "THP-1 cells, LPS-primed", "assay": "pyroptosis, LDH release", "conditions": "25 µM, LPS 1 µg/mL, 4 h, together with: nigericin 5 µM, 2 h", "quantity": "cell lysis", "result": "91.4%"}
{"SMILES": "CC(C)c1ccc(N(C)c2ccc3c(c2)OCC[C@H]3CNc2cnccc2C(=O)O)cc1", "cell line": "SK-CO-1", "assay": "cell viability, CellTiter-Glo", "conditions": "7 days", "quantity": "IC50", "result": "0.0306 µM"}
{"SMILES": "CC[C@H](NC(=O)[C@@H](NC(=O)[C@H](CC(=O)O)NC(C)=O)[C@@H](C)O)C(=O)N[C@@H](CC(=O)O)C(=O)COC(=O)c1c(C)cccc1C", "cell line": "THP-1 cells, LPS-primed", "assay": "pyroptosis, LDH release", "conditions": "25 µM, LPS 1 µg/mL, 4 h, together with: nigericin 5 µM, 2 h", "quantity": "cell lysis", "result": "76.4% and 72.5%"}
{"SMILES": "CNS(=O)(=O)Nc1nccc(Cc2c(C)c3ccc(Oc4ncccc4F)cc3oc2=O)c1F", "cell line": "LCLC-103H", "assay": "cell viability", "conditions": "7 days", "quantity": "IC50", "result": "> 1 µM"}
{"SMILES": "CCC(=CCc1c(O)cc2c(c1O)C(=O)CC(c1ccc(OC)c(O)c1)O2)CC (stereo not drawn)", "cell line": "HeLa", "assay": "cell growth or viability, MTT", "conditions": "25 µM, 48 h", "quantity": "inhibition", "result": "82.2%"}
{"SMILES": "Cc1cc(Cl)cc(-c2ccnc3cc(CN4C(=O)C5C(C4=O)C5(C)C)sc23)c1C[C@@H]1CNCCO1 (stereo partly drawn)", "cell line": "CHP-212 resistant", "assay": "annexin V/PI flow cytometry", "conditions": "0.3 µM, 48 h", "quantity": "late apoptotic cells", "result": "8.03% and 8.41% and 4.46%"}
